{"data": "Measured values of several laboratories", "note": "Each numbered part is a random draw from the data of one study; scales do not carry over between parts. Positions count from the first letter of the parent shown."}
{"data": "Block 1", "target": "Fragile X messenger ribonucleoprotein 1, C-terminal low-complexity region (Fmr1, Mus musculus, UniProt P35922)", "method": "RNA Bind-n-Seq", "form": "RNA", "medium": "in vitro", "tested at": "200 nM", "setting": "whole 134-nt RNA, ends assumed", "with": "150 mM KCl", "baseline": "input library", "reading": "higher = stronger binding", "shared flanks, not repeated": "GGGAGUUCUACAGUCCGACGAUC … UGGAAUUCUCGGGUGUCAAGG"}
{"Oligonucleotide": "CCUCAAGUCCUGUGCUACACAUCGUAUGUACCGAAUCGGUGGUGGAAAAAGGAAAGUAUUAUGUUACGCCGUUCGGAUCUGCACUUCCAG", "log2 enrichment": 0.141}
{"Oligonucleotide": "AGUCCUGUGCUACACAUCGUAUGUACCGAAUCGGUUUUUGGAAAAAGGAAAAAAAGGAAAGUAUUAUGUUACGCCGUUCGGAUCUGCACU", "log2 enrichment": -0.976}
{"Oligonucleotide": "UAGGUAUUUCUGGGAAAAGCCAGCUUCUGUUUGCACUGGUCUUCACAACUCGUUACCUGGAUCUUUUUACUUCAUUUAUUUCAUUGUAUA", "log2 enrichment": -1.86}
{"Oligonucleotide": "UAACUUUAGAGGAGGAUCUGAUGGAUAUGGCAGUGGACGUGGAUUUGGGGACGGCUAUAAUGGGUAUGGAGGAGGACCUGGAGGUGGCAA", "log2 enrichment": 0.178}
{"Oligonucleotide": "AGUCCUGUGCUACACAUCGUAUGUACCGAAUCGGGGCCCGGGGCCCGGGGCCCGGGGAAAGUAUUAUGUUACGCCGUUCGGAUCUGCACU", "log2 enrichment": -0.973}
{"Oligonucleotide": "UUUUGCAUUUAGGGUUUUAACCAAGAAGAUCUGGAAGAAGAAAAAGGUGAAACACAGGUAAAAGAAGCAGAAGAUUCAGAUUCUGAUGAU", "log2 enrichment": -1.96}
{"Oligonucleotide": "GCAGGAUGUAAAAACAAAUGGAAAUGCUUCGGAUAGUGGCAGGGGUGGGGGUUGCUAAGGAAAGGGUGGGAUGGGAGUGGGUAAAGAGUU", "log2 enrichment": 0.51}
{"Oligonucleotide": "ACCAUGCAGGUGGGCAUCUUUGGGAAGUGGGGCAAGGGGGGGAUAGGGAGGGGGGUAACACUUUAGGAACAGGUGGUCCCAGGUCGUUUC", "log2 enrichment": 0.523}
{"Oligonucleotide": "UCCUGUGCUACACAUCGUAUGUACCGAAUCGGGAAAAAGGGUUUUUGGGUUUUUUUGGGAAAGUAUUAUGUUACGCCGUUCGGAUCUGCA", "log2 enrichment": -0.224}
{"Oligonucleotide": "CUCAAGUCCUGUGCUACACAUCGUAUGUACCGAAUCGGGUUGGUUGGGUUGGGAAAGUAUUAUGUUACGCCGUUCGGAUCUGCACUUCCA", "log2 enrichment": 1.09}
{"Oligonucleotide": "UUCUCUGCCGGCUCAGAGGAGAGGAGACGCCGUGAGCGGGACGACCAGAUGUACCGAGAGCGGCUGCGCACCUUGCUGGUCAUCGCGGUU", "log2 enrichment": -1.84}
{"Oligonucleotide": "UGGCCCUGGUGGCAUGCGGGGAGGAAGAGGUGGCCUCAUGGAUCGUGGUGGUCCCGGUGGAAUGUUCAGAGGUGGCCGUGGUUGAGACAG", "log2 enrichment": -0.142}
{"Oligonucleotide": "AAGUCCUGUGCUACACAUCGUAUGUACCGAAUCGGGUUUUUGGGUGGGAAAAAGGGAAAGUAUUAUGUUACGCCGUUCGGAUCUGCACUU", "log2 enrichment": 0.643}
{"Oligonucleotide": "UGGGAGGUGGAUUUUGUUUAUUUUUUUAGCUCAUUUCCAGGGGUGGGAAUUGUUUUUUAAUAUGUGUCAUGAAUAAAGUUGUUUUUGAAA", "log2 enrichment": 0.27}
{"data": "Block 2", "target": "RNA binding protein fox-1 homolog 2, RRM domain, GST-SBP tag (RBFOX2, Homo sapiens, UniProt O43251-10, residues 100-194)", "method": "RNA Bind-n-Seq", "form": "RNA", "medium": "in vitro", "tested at": "365 nM", "setting": "natural RNA segment, single round, ends assumed", "baseline": "no-protein control", "reading": "higher = stronger binding", "shared flanks, not repeated": "GGGAGUUCUACAGUCCGACGAUC … UGGAAUUCUCGGGUGCCAA", "Target sequence (chain)": "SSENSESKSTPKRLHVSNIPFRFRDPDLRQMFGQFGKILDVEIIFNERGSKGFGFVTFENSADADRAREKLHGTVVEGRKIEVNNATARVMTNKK"}
{"Oligonucleotide": "ACCACUACAAUGUCUGUCCUUGGGAAGGUAGCAAGACCUGAAGAUUGGAGAUGUCAGGGUCCAUAAGAUGCUUUUUUAGUCUUCAGAAUACCGAGCUACUGGUCCUAAGA", "RBNS enrichment (R)": 0.534}
{"Oligonucleotide": "AGCAUGUGGGUAUUUGUCGACCAAAAUGAUGCCAAUUUGUAAAUUAAAAUGUCACCUAGUGGCCCUUUUCUUAUGUGUUUUUUUGUAUAAGAAAUUUUCUGUGAAAUAUC", "RBNS enrichment (R)": 48.2}
{"Oligonucleotide": "AUUUCAAAGCUGGUUUGCUUUUUUAAAGGACUUUAUCCAAGCAGAGAACUAUACUAUUUUUCCUAUGGGACAAUGGACUUUCAGGACCUCACUUCAUUUUCAGAGUUAAU", "RBNS enrichment (R)": 0.346}
{"Oligonucleotide": "GCUAAGUUAAUCAGAAAUUGCGAGCAUGCACAGUGGUAUGCCAGCCUGGGUGAUGCUUUCCUAGGAGAGCCGGUAUUUGCUUGUAAGGGAAAGAAUGGUAUUGUAGAAAA", "RBNS enrichment (R)": 4.14}
{"Oligonucleotide": "GUGGAGGUUUUGGCAAUGAGCUGUUUAACUUGGCCAAGCUAGGCUGUCAACCCAGACAACUCAGUCCUUUCAUGUAAAUUUUUGGGCAAGAGAAGUCUGCUUUGACUGCC", "RBNS enrichment (R)": 0.33}
{"Oligonucleotide": "CGGAGUUUUGCUCUUGUUGCCCAGGCUGGAGUGCAGUGACACAAUCUCUACUCACUGCAACCUCCACCUCCCGGGUUCAAGCAAUUCUCCUGCCUCAGCCUCCUGAGUAG", "RBNS enrichment (R)": 0.263}
{"Oligonucleotide": "AAGGACCGGCUCAGGCACUGACCCUCUGAGUCACGUGAAUGAGGACGAAGAAUUUGGAAUAGGUUUGGUUACAUCUAUUUCUCAUCCCCUUAUUUUCCACCAUUUAAAAA", "RBNS enrichment (R)": 0.353}
{"Oligonucleotide": "CACUUCUUGAAGAAGUGCAGUUGUAAAUAAGCCAUGUAAAAUGCCUUUUUAAAGUUUAAUUUUAUAGCUGGCUCCACAUCAAAGUGAGGGCCUCAUAUGUUAGAUCACCU", "RBNS enrichment (R)": 0.246}
{"Oligonucleotide": "CUCACACAAGAAGACAGAGCCGGAAACAUGCAGGGUCAGACCAGUGUUCCUACAGUGAGCCCCAGAACUGCACAUUUGACCCAAAGGCACUCAGGUGGUGAAAAGAGACA", "RBNS enrichment (R)": 0.652}
{"Oligonucleotide": "AAUUGAGCCUCUCUGAUGAUGGAGAUGAAGUGAAGGUCUGAGGGAGCGGGCCCUGGGGCGAGGCCAUCUCUGCCUGCCUCCCUAGCAGGCGCCAGCGGUGGAGGCUGAGU", "RBNS enrichment (R)": 0.674}
{"Oligonucleotide": "AGCAGAUGGGUGAGCUGCACCAAAGUACCUGAGCAGUUAGGCCCCAGGUCCCCACCUGACCACCUGUGAACUGGCCAUCAUCAGGCUCCCAGUUUCUCCUGUACAAAUCC", "RBNS enrichment (R)": 0.294}
{"Oligonucleotide": "UCUUUUGUAACUUUGCAGACAAAUAAGUAUGAGUCACUGGGGAGAGAGUUUGUUAUUGAAAUAGAUGUUGCCCAUGAAGAAUUCUCCUUCCUGGAUUGACUCUUAAUCAU", "RBNS enrichment (R)": 0.318}
{"data": "Block 3", "target": "CCNE2, cyclin fold, Cln2 fusion (human)", "method": "yeast growth competition, sequencing", "medium": "yeast", "setting": "strong parent motif", "baseline": "not given", "reading": "higher = stronger binding", "parent": "E2F1 docking peptide (human); PPVKRRLDLETDH"}
{"Variant": "K4V", "normalised enrichment score": 1.62}
{"Variant": "P2A", "normalised enrichment score": 1.02}
{"Variant": "D12P", "normalised enrichment score": 2.13}
{"Variant": "K4W", "normalised enrichment score": -0.0506}
{"Variant": "E10Q", "normalised enrichment score": 1.47}
{"Variant": "R6S", "normalised enrichment score": -0.0813}
{"Variant": "H13L", "normalised enrichment score": 1.47}
{"Variant": "V3Q", "normalised enrichment score": 0.816}
{"Variant": "R5I", "normalised enrichment score": -0.459}
{"Variant": "D12S", "normalised enrichment score": 2.01}
{"Variant": "R6T", "normalised enrichment score": 0.687}
{"Variant": "T11G", "normalised enrichment score": 1.15}
{"Variant": "L7G", "normalised enrichment score": 0.0376}
{"Variant": "K4F", "normalised enrichment score": -0.131}
{"data": "Block 4", "target": "Centromere-binding protein 1, full length, His-tagged (CBF1, Saccharomyces cerevisiae, UniProt P17106, residues 1-351)", "method": "competition protein-binding microarray", "form": "double-stranded DNA, one strand shown", "medium": "in vitro", "tested at": "2 µM", "setting": "whole 60-bp probe, lowest competitor level", "with": "Pho4 competitor, 0.05 µM", "reading": "higher = stronger binding", "shared flanks, not repeated": "… GTCTTGATTCGCTTGACGCTGCTG", "chain of UniProt P17106 (whole entry, looked up)": "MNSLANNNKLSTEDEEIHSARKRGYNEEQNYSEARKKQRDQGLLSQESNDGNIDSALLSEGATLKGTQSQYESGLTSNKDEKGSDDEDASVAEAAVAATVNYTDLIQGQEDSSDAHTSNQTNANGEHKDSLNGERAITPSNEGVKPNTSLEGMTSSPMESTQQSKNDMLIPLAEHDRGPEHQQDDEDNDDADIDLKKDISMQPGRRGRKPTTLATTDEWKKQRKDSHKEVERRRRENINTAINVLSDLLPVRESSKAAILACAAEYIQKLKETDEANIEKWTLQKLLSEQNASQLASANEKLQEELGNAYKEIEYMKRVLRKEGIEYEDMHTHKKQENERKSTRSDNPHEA"}
{"Oligonucleotide": "CCTTAGTTGGGTCTGCATGTGGGCAGGATCTACCAA", "fluorescence intensity": "85.4 a.u."}
{"Oligonucleotide": "GACAACGACTTTGCAGACGTGCCGATTCCACCCATC", "fluorescence intensity": "71.6 a.u."}
{"Oligonucleotide": "AAATTACTAAGTTGACTTGTGGGTGACGCCGTATGA", "fluorescence intensity": "78.1 a.u."}
{"Oligonucleotide": "TTTCTAATTGGCCATCACGTTCAATAGTGGCTCTGA", "fluorescence intensity": "257 a.u."}
{"Oligonucleotide": "CTTTCCCGATCTTGGCTGGTGGGTGTAGCACATTTG", "fluorescence intensity": "57.1 a.u."}
{"Oligonucleotide": "TTGTTTTTTGTGTGGCATGTGCAGCGAGCGATGAGT", "fluorescence intensity": "149 a.u."}
{"Oligonucleotide": "TACCTTAACCCCGGCACCGTGCGATGCAGATCCGCC", "fluorescence intensity": "51.2 a.u."}
{"Oligonucleotide": "TGCGCAACAACTTGCCATGTGGGTGTATGTCTAGAA", "fluorescence intensity": "90.7 a.u."}
{"Oligonucleotide": "ACCAAGACTAACGGCCACGCTGCACCAACCACCAAG", "fluorescence intensity": "72.3 a.u."}
{"Oligonucleotide": "TGCAGGGAGAGGTCACACGAGGACGCAGGGATGCTG", "fluorescence intensity": "102 a.u."}
{"Oligonucleotide": "CGGGGTTAAGTTTGATCTGTGGGTGGCTTGCAGCAG", "fluorescence intensity": "72.2 a.u."}
{"Oligonucleotide": "AAAGCGGTAATTTGGTACGTGGGTGCAGATATCTAT", "fluorescence intensity": "73.9 a.u."}
{"Oligonucleotide": "TTGAAAGGCATCGGCCACGTCGTCCCCTTCTCTAAC", "fluorescence intensity": "62.9 a.u."}
{"Oligonucleotide": "AAAGCGGTAATTTGGTTGGTGGGTGCAGATATCTAT", "fluorescence intensity": "78.2 a.u."}
{"Oligonucleotide": "CTTTCCCGATCTTGTGATGTGGGTGTAGCACATTTG", "fluorescence intensity": "111 a.u."}
{"Oligonucleotide": "CGGGGTTAAGTTTTTCACGTGTGTTGCTTGCAGCAG", "fluorescence intensity": "594 a.u."}
{"Oligonucleotide": "CTCAAGCTTATGGTTCACGTTATAGAACACAGGAGA", "fluorescence intensity": "109 a.u."}
{"Oligonucleotide": "AAAGCGGTAATTTTTCACGTGAGGTCAAATATCTAT", "fluorescence intensity": "1690 a.u."}
{"data": "Other studies, line by line"}
{"Molecule": "PhoQ, residues 284 288 289 292 302 303 SLKLQV", "target": "PhoP, residues 12 14 15 18 19 NQFFI (Escherichia coli, UniProt P23836)", "test": "Sort-seq, refers to: YFP reporter", "system": "E. coli", "setting": "PhoQ-PhoP variant library, with: 10 µM Mg2+", "scale": "baseline: high Mg2+ state, higher = stronger signaling", "endpoint": "fold induction", "value": 9.02}
